Experimental data from different studies.
± gives the spread as reported.

For COc1ccc2c(c1)C(C)(C)C(/C=C/C1=C(Oc3ccc(C(=O)NCCCCOc4cc(CN(Cc5ccccn5)Cc5ccccn5)cc(CN(Cc5ccccn5)Cc5ccccn5)c4)cc3)C(=C/C=C3/N(CCCCS(=O)(=O)[O-])c4ccc(OC)cc4C3(C)C)CCC1)=[N+]2CCCCS(=O)(=O)[O-].O=[N+]([O-])[O-].O=[N+]([O-])[O-].[99Tc+].[C-]#[O+].[C-]#[O+].[C-]#[O+].[Zn+2], the tissue uptake was 9.42 %ID/g (BALB/c mice, S. aureus myositis, spleen; 12 h post-injection).
For N#C[C@@H]1CCCN1C(=O)CNC(=O)c1ccnc2ccc(OCCCN3CCN(C(=O)CCc4ccc5c(c4)CN4CCN(Cc6cc(CCC(=O)O)ccc6O)CC(=O)[O][Al-]([18F])([O]C(=O)C4)[O]5)CC3)cc12 (stereo partly drawn), the tissue uptake was 0.35 ± 0.17 %ID/g (BALB/c nude mice, U-87 MG xenograft, pancreas; 1 h, blocking, with: DOTA-FAPI-04 40 nmol/mouse co-injected).
Cc1cc(C)n(CCN(CCN)CCCCCCNC(=O)[C@@H](N)Cc2c[nH]c3ccccc23)n1.[99Tc+].[C-]#[O+].[C-]#[O+].[C-]#[O+] gave a tissue uptake of 0.22 ± 0.02 %IA/g (BALB/c nude mice, A549 xenograft, bone; intravenous, 4 h).
The tissue uptake of CC(C)C[C@H](NC(=O)[C@@H](CCCCNC(=O)[C@@H](Cc1ccccc1)NC(=O)CCCCCCCNC(=O)CN1CCN(CC(=O)O)CCN(CC(=O)O)CCN(CC(=O)O)CC1)NC(=O)[C@H](Cc1ccc(O)cc1)NC(=O)[C@H](CO)NC(=O)[C@H](Cc1c[nH]c2ccccc12)NC(=O)[C@H](Cc1c[nH]cn1)NC(=O)[C@@H]1CCC(=O)N1)C(=O)N[C@@H](CCCNC(=N)N)C(=O)N1CCC[C@H]1C(=O)NCC(N)=O [indium-111 labelled] is reported as 0.86 ± 0.22 %ID/g (male athymic nude mice, DU-145 prostate cancer xenograft, liver; intravenous, dose not given, 1 h, with: unlabeled blocking peptide 10 µg).
CCCC[C@H](NC(=O)CNC(=O)CNC(=O)[C@H](CCCCNC(=O)C(C)c1ccc(CC(C)C)cc1)NC(=O)CN1CCN(CC(=O)O)CCN(CC(=O)O)CCN(CC(=O)O)CC1)C(=O)N[C@H]1CC(=O)NCCCC[C@@H](C(N)=O)NC(=O)[C@H](Cc2c[nH]c3ccccc23)NC(=O)[C@H](CCCNC(=N)N)NC(=O)[C@@H](Cc2ccccc2)NC(=O)[C@H](Cc2c[nH]cn2)NC1=O (stereo partly drawn) [lutetium-177 labelled] has a tissue uptake of 0.28 ± 0.12 %ID/g (C57 mice, tumour-bearing, muscle; 2 h).
O=C(NCC1OC2CCC=CCCC2O1)c1ccc([18F])nc1 (stereo not drawn) gave a tissue uptake of 4.5 ± 1.4 %ID/g (healthy female BALB/c nude mice, stomach; intravenous, 7.4 MBq per mouse, 10 min).
For COc1ccc(Nc2nc(Nc3ccc(OCCOCC[18F])cc3)ncc2Br)cc1, the tissue uptake was 2.89 ± 0.52 %ID/g (ICR mice, S180 tumour, liver; intravenous, 30 min, with: PF-562271 33 mg/kg oral 1 h before).
CCCC[C@H](NC(=O)COCCOCCNC(=O)CN1CCN(CC(=O)O)CCN(CC(=O)O)CC1)C(=O)N[C@H]1CC(=O)NCCCC[C@@H](C(N)=O)NC(=O)[C@H](Cc2c[nH]c3ccccc23)NC(=O)[C@H](CCCNC(=N)N)NC(=O)[C@@H](Cc2ccccc2)NC(=O)[C@H](Cc2c[nH]cn2)NC1=O [fluorine-18 labelled] has a tissue uptake of 0.94 ± 0.16 %ID/g (C57 mice, B16/F10 melanoma, tumor; intravenous, 1 h, with: NDP-MSH 10 µg).
CCCC[C@H](NC(=O)CNC(=O)CNC(=O)[C@H](CCCCNC(=O)[C@H](CC(=O)O)NC(=O)C(C)c1ccc(CC(C)C)cc1)NC(=O)CN1CCN(CC(=O)O)CCN(CC(=O)O)CCN(CC(=O)O)CC1)C(=O)N[C@H]1CC(=O)NCCCC[C@@H](C(N)=O)NC(=O)[C@H](Cc2c[nH]c3ccccc23)NC(=O)[C@H](CCCNC(=N)N)NC(=O)[C@@H](Cc2ccccc2)NC(=O)[C@H](Cc2c[nH]cn2)NC1=O (stereo partly drawn) [lutetium-177 labelled] gave a tissue uptake of 4.75 ± 0.8 %ID/g (C57 mice, tumour-bearing, lung; intravenous, 0.037 MBq, 0.5 h).
With Cc1cc(C)n(CCN(CCN)CCCCCCNC(=O)[C@@H](N)Cc2c[nH]cn2)n1.[99Tc+].[C-]#[O+].[C-]#[O+].[C-]#[O+] the tissue uptake was 1.2 ± 0.29 %IA/g (BALB/c nude mice, A549 xenograft, pancreas; intravenous, 15 min).
CCCC[C@H](NC(=O)CNC(=O)CNC(=O)[C@H](CCCCNC(=O)[C@H](CCN)NC(=O)C(C)c1ccc(CC(C)C)cc1)NC(=O)CN1CCN(CC(=O)O)CCN(CC(=O)O)CCN(CC(=O)O)CC1)C(=O)N[C@H]1CC(=O)NCCCC[C@@H](C(N)=O)NC(=O)[C@H](Cc2c[nH]c3ccccc23)NC(=O)[C@H](CCCNC(=N)N)NC(=O)[C@@H](Cc2ccccc2)NC(=O)[C@H](Cc2c[nH]cn2)NC1=O (stereo partly drawn) [lutetium-177 labelled] gave a tissue uptake of 0.41 ± 0.09 %ID/g (C57 mice, tumour-bearing, pancreas; 2 h).
With O=C([O-])CN1CCN(CC(=O)[O-])CCN(CC(=O)NC[C@H]2CC[C@H](C(=O)N[C@H](Cc3cnc4ccccc4c3)C(=O)NCCCC[C@H](NC(=O)N[C@@H](CCC(=O)O)C(=O)O)C(=O)O)CC2)CCN(CC(=O)[O-])CC1.[64Cu+2] the tissue uptake was 9.86 %ID/g (ex vivo gamma counting; 22Rv1 tumour-bearing mice, kidney; intravenous, 0.74 MBq, 24 h post-injection).

Some of these lines once more:
CCCC[C@H](NC(=O)CNC(=O)CNC(=O)[C@H](CCCCNC(=O)[C@H](CC(=O)O)NC(=O)C(C)c1ccc(CC(C)C)cc1)NC(=O)CN1CCN(CC(=O)O)CCN(CC(=O)O)CCN(CC(=O)O)CC1)C(=O)N[C@H]1CC(=O)NCCCC[C@@H](C(N)=O)NC(=O)[C@H](Cc2c[nH]c3ccccc23)NC(=O)[C@H](CCCNC(=N)N)NC(=O)[C@@H](Cc2ccccc2)NC(=O)[C@H](Cc2c[nH]cn2)NC1=O (stereo partly drawn) [lutetium-177 labelled] gave a tissue uptake of 4.75 ± 0.8 %ID/g (C57 mice, tumour-bearing, lung; intravenous, 0.037 MBq, 0.5 h).
CCCC[C@H](NC(=O)CNC(=O)CNC(=O)[C@H](CCCCNC(=O)C(C)c1ccc(CC(C)C)cc1)NC(=O)CN1CCN(CC(=O)O)CCN(CC(=O)O)CCN(CC(=O)O)CC1)C(=O)N[C@H]1CC(=O)NCCCC[C@@H](C(N)=O)NC(=O)[C@H](Cc2c[nH]c3ccccc23)NC(=O)[C@H](CCCNC(=N)N)NC(=O)[C@@H](Cc2ccccc2)NC(=O)[C@H](Cc2c[nH]cn2)NC1=O (stereo partly drawn) [lutetium-177 labelled] has a tissue uptake of 0.28 ± 0.12 %ID/g (C57 mice, tumour-bearing, muscle; 2 h).
